Measured values from different studies.
Each line is one published result; not all experiments were run side by side. ± gives the spread as reported.
Sequence of UniProt P50613 (whole entry, looked up): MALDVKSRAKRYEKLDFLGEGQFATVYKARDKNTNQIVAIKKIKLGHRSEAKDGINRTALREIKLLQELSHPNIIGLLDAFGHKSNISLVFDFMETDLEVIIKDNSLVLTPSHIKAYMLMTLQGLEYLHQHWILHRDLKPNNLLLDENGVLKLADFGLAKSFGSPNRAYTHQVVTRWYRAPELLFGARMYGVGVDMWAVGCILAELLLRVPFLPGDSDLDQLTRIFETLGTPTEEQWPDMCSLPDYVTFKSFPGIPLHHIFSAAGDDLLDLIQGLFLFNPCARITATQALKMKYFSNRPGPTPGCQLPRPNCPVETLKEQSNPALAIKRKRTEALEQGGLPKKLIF

Compound = COc1cccc(C2(O)CCCCC2CN(C)C)c1 (stereo not drawn); test = joint PK model; system = human, whole blood; conditions = oral, two-compartment metabolite model; endpoint = absorption rate constant; value = 4.06 ng/h
Compound = O=C1c2c(O)c(=O)ccn2N([C@@H]2c3ccccc3SCc3c2ccc(F)c3F)[C@@H]2COCCN12; system = BALB/c mice, plasma; conditions = oral, 5 mg/kg baloxavir marboxil, 6 h; endpoint = plasma concentration; value = 15.7 ng/mL
Compound = COc1ccc(Nc2nc(Nc3ccc(OC)cc3OC)nc(N3CCOCC3)n2)c(OC)c1; target or system = Vero-E6; test = CellTiter-Glo ATP; conditions = 72 h, retest 8-point duplicates; scale = relative to: DMSO 0%, hyamine -100%, more negative, more toxic; endpoint = maximum response; value = -18.2%
Compound = C#Cc1ccc2c(c1)C(c1ccccn1)=NCc1c(-c3cnco3)ncn1-2; system = cynomolgus monkey hepatocytes; conditions = 2 µM, 4 h, 37 °C; endpoint = metabolite peak area share; value = 87.4%
Compound = Cc1ncc2n1-c1ccc(Cl)cc1C(c1ccccc1F)=NC2; system = wild-type mice, plasma; conditions = intravenous, 0.3 mg/kg, together with: 14-day BC 500 mg/kg; endpoint = mean residence time; value = 0.227 ± 0.00833 h
Compound = C[C@H]1CN(c2n[nH]c3nc(N[C@H]4CC[C@H](NS(=O)(=O)CCC(F)(F)F)CC4)ncc23)CCO1; target or system = Cyclin-dependent kinase 7 (CDK7, Homo sapiens, UniProt P50613); test = Kinobeads competition; system = HEK293, K562, placenta lysate; conditions = 20 µM, unit not given; scale = relative to: vehicle; endpoint = remaining binding; value = 0.26
Compound = CCCC(C(=O)c1ccc2c(c1)OCO2)N1CCCC1.Cl (racemic); system = rat; conditions = subcutaneous, 1 mg/kg, 240 min; endpoint = brain-to-plasma ratio; value = 11.1 ± 2.1
Compound = CCC(CC)COC(=O)[C@H](C)N[P@](=O)(OC[C@H]1O[C@@](C#N)(c2ccc3c(N)ncnn23)[C@H](O)[C@@H]1O)Oc1ccccc1; system = human; conditions = intravenous, 100 mg; endpoint = participants with diarrhoea; value = 11%
Compound = CCN(CC)C(=O)[C@@H]1C=C2c3cccc4[nH]cc(c34)C[C@H]2N(C)C1; test = measured: lack of appetite; system = healthy volunteers; conditions = dose not given, 0 to 12 h; scale = relative to: placebo, direction not given; endpoint = List of Complaints score; value = 9
Compound = CC1CCCN(CCCNC(=O)c2cc(Sc3ccc(F)cc3)nc3ccccc23)C1 (stereo not drawn); target or system = Vero-E6; test = CellTiter-Glo ATP; conditions = 72 h, first round 5-point; scale = relative to: DMSO 0%, hyamine -100%, more negative, more toxic; endpoint = maximum response; value = 4.36%
Compound = CCCC(C(=O)c1ccc(O)c(OC)c1)N1CCCC1 (stereo not drawn); test = LC-MS/MS; system = rat, trunk blood plasma; conditions = subcutaneous, 1 mg/kg MDPV, 40 min; endpoint = plasma concentration; value = 15.6 ± 1.7 ng/mL
Compound = COc1cc2c(Oc3ccc4[nH]c(C)cc4c3F)ccnc2cc1OCC1(N)CC1; system = paediatric refractory sarcoma patients; conditions = 8 mg; endpoint = gingival bleeding incidence; value = 0%
Compound = OCc1ncc2n1-c1ccc(Cl)cc1C(c1ccccc1F)=NC2; system = human, plasma; conditions = oral, 7.5 mg of midazolam, day 26, geometric mean, no amenamevir; endpoint = AUC(0-t); value = 40.4 ng·h/mL
Compound = CCCC(C(=O)c1ccc(O)c(O)c1)N1CCCC1 (stereo not drawn); test = LC-MS/MS; system = rat, trunk blood plasma; conditions = subcutaneous, 4 mg/kg MDPV, 240 min; endpoint = plasma concentration; value = 60.4 ± 6.9 ng/mL
Compound = CN/C(=N\[N+](=O)[O-])NCc1cnc(Cl)s1; system = soil; conditions = 56 days, nominal 0.12; endpoint = recovery; value = 42%

Some of these lines once more:
Compound = COc1cc2c(Oc3ccc4[nH]c(C)cc4c3F)ccnc2cc1OCC1(N)CC1; system = paediatric refractory sarcoma patients; conditions = 8 mg; endpoint = gingival bleeding incidence; value = 0%
Compound = CCCC(C(=O)c1ccc(O)c(O)c1)N1CCCC1 (stereo not drawn); test = LC-MS/MS; system = rat, trunk blood plasma; conditions = subcutaneous, 4 mg/kg MDPV, 240 min; endpoint = plasma concentration; value = 60.4 ± 6.9 ng/mL
